Assay results pooled from the literature.
A part holds a random share of what one study measured.

Block 1 — method: RNA Bind-n-Seq; molecule type: RNA; medium: in vitro; tested at: 365 nM; relative to: no-protein control; reading: higher = stronger binding
Target: RNA binding protein fox-1 homolog 2, RRM domain, GST-SBP tag (RBFOX2, Homo sapiens, UniProt O43251-10, residues 100-194)
Setting: natural RNA segment, single round, ends assumed
Residues (chain): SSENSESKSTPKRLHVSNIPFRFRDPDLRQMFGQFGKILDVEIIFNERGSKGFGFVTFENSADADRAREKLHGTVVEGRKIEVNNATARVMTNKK
Strand | RBNS enrichment (R)
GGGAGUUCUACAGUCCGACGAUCGGACAGAGUCUCAAGCCCUUAAUUUAUUUUAGCAGCUGUGUUUCUGUGACCCUGGUGUGACUAAGCAUCAGGGGUGGGGUUGUAUAAGUUCAAAAGUGUGAAAUGUCUGAUGGAAUUCUCGGGUGCCAA | 0.523
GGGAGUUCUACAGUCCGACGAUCUGUCGAGGUUUGCAAAGACUGACUUCAAACUACUGUACGUUUUUUUCAAGUGCUAAAAAAAAAAUUAAACCAAGCAGCUUAACCAUGGUUUUGAUUAUUCCUCUAAGAUGUGGAAUUCUCGGGUGCCAA | 0.603
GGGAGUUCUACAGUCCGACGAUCUGCCAAAGAUACAAGAAUAUGCAAAGUCCCUCCUCCUAACCCUCCUUCCCUCUAAGUCGGUGGCUUGAGAGCCGGGGAUGUGGAUUUGGUGUGGUUACAGGGUCCCCUGCUGGAAUUCUCGGGUGCCAA | 0.426
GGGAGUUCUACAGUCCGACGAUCCAAAUGUGACAGGCUCUUUUUAGCAAAAUUUUUGAAAAUUUUUUUGGUAUUACUCUGAAACAAAAUUUAAGUUGGAGUUUCAGGGAUUUAGGGAGUAGUUUUCAUUCUACUGGAAUUCUCGGGUGCCAA | 0.622
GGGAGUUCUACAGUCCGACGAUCCCAGUUGUUAGGCUGCCCCCCUGAGCCUCACCUUGUUCACCUUGGUUUUCCGAUGAUGAGCUUCCCUAGACAGAUCAUGCUCCACGUCCACGGUGUUCUCAGCACCGUGAUGGAAUUCUCGGGUGCCAA | 0.306
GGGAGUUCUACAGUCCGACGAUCAAUUGAACAAGAAAUGCAUCUGUCUUAGAAACUGGAGAUUAUUUGAUGUUAGGUAAAACAUGUAAUUGUUUCUCUGGCAAAUUUGUAUCAGUAAUUUGAAAAUGAGAUAUUGGAAUUCUCGGGUGCCAA | 0.955
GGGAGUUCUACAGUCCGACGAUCGAUCACCUGAGGACAGGAGUUCGAGACCAGUCUGGCCAACAUGGGGAAACCCCGUCUCUACUAAAAAUACAAAAAUUAGCCGGGCAUGGUGGUGGGCGCCUGUAAUCCCAUGGAAUUCUCGGGUGCCAA | 0.298
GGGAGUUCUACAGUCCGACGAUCAAGUUAAGUUACUGUUCAAAGUUGAAAAGCAUAUAUGCUACAUUUUCUGCUGAAAGGUGAUUAUAUUUGACAGGUGCUUAGACAUUUGGCUAAGAUAUUUUCCAAUCAGUUGGAAUUCUCGGGUGCCAA | 0.277
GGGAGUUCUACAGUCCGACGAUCUGUAUGUUGUUCUUUUGUGUAUUUAUUUGUAUCAUAAACACAUGGGAAAGCAAAGACCAUAAGCACCAUUUUGCAGUUCUAUCUUUUUUUCCAGUUAGCCUAUGUAACCAUGGAAUUCUCGGGUGCCAA | 0.559
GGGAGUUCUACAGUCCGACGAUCUACGCCUUUCCAAUCUUUAUUGGAAGUCUCUCCCUGCCUACUUCCUAAUUUAUUCUUAUUUGACAGAGGGUAUGGAAGACUUGCAAUUUGAAAACUGGGGACCAGUUCCAUGGAAUUCUCGGGUGCCAA | 0.277
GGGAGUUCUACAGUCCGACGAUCCACUGCAGAGGAAGAACCCUGGGCACAGCAGCUUUGUCCUUGGCUACAAACUGUUACAACGUCACACAAUGAAGGCACAAAGUCCAACUUUCAAAGGGUGUAGGACUCCAUGGAAUUCUCGGGUGCCAA | 0.582
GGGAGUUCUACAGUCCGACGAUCGCAGGAUAGGCAAAGCUGUGGAAUGUACAUUUCCUGGAUGUCAGGGGUGACCAAAACAGUACAUCAGUUCCUGAGAUAUUCAAGCAAAUGCCCCCGAUAGCAUAGUGUGUUGGAAUUCUCGGGUGCCAA | 0.262

Block 2 — method: RNA Bind-n-Seq; molecule type: RNA; medium: in vitro; tested at: not given; setting: RNA with constant flanks, ends assumed; relative to: input RNA pool; reading: higher = stronger binding
Target: RING finger protein unkempt homolog, zinc fingers 1-6, GST-SBP tag (UNK, Homo sapiens, UniProt Q9C0B0, residues 30-357)
Construct (chain): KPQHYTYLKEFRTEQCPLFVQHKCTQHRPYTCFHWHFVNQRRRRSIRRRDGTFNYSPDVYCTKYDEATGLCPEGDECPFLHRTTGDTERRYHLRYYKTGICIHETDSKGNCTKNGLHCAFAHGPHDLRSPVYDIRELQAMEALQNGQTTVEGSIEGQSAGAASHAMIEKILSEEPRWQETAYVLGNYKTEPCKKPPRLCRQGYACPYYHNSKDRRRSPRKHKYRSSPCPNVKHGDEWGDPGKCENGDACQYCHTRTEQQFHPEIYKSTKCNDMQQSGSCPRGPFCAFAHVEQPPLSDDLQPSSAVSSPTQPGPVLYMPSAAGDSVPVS
Strand | bound/input enrichment
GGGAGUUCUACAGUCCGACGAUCCUAACGAACUUUACACUCCUGAUGCCAGCAGUAUCCGUUGGAAAUGUUGGCCAGCUUGCAACCGAUCUGAUUAUUUCUACACUGAACAUGUGUAAGAUUGGUUAUUUCUAUACUGAUUGCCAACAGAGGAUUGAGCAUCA | 0.0871 ratio
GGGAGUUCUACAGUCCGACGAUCACUUCAGUGGCUGGAACAGUGAGAAAAUGCUGGCCUAAUAGAGUGGCAAAGGAGCAGAUCCGCCGGCGGCUUGAUGGUAAUCAGUAUCUGUUUUUGCCACCAAAUCGUUACAUUUUCCAUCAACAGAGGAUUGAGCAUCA | 0.126 ratio
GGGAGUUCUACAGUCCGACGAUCCCAAAAGCAGUAGUUUCUCCUCCUAAGUUUGUAUUUGGCUCAGAAUCUGUUAAAAGCAUUUUCCGCCGUGAAAAAUCCAAGCCAUUUGCAUUUGGCAACAGUUCAGCCACUGGUUCUUUGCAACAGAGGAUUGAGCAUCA | 0.168 ratio
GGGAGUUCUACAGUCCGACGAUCGGGGGUGAUGGUCCUAUGUGUCGCCCAGUAAUUCUGUUGCCGGAAGAUACCCCCCCCUUCUCCGAGCUUAAAGGAUCACGCCAUCCUUGCAUUACGAAGACUUUUUUUGGAGAUGAUUUUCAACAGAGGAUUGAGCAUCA | 0.44 ratio
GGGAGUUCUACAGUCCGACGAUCCCAGUUCUCAUUUCAGCUAUGAAGAUUUUUGUAACAACUAAAAACUCAAAAAACCAAGGCACCGAGGAAGCUUUAAAAAAUCGCAAUUUUACUGUAGAAAAAAUGAGUGCUGAAAUUAAUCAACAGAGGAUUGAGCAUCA | 0.197 ratio
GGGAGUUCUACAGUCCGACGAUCAAGCUUGGUGGGACAAUAGAUGACUGUGAGCUGGUGGAAGGCCUCGUUCUCACACAGAAAGCCGCAAAUUCUGGCAUAACAAGAGUUGAAAAGGCUAAGAUUGGGCUUAUUCAGUUUUGCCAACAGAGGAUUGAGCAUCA | 0.204 ratio
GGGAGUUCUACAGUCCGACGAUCAUUACUCUAAUGGAGUACUAUUCCAAAGAAGCCCUAGGCGAUUCCAAGUCUAAGAAGUCAGCCGCUUAUAAUUACGCAUGCGUACUCACGCUGGUGGUGGCUCAGUCUUCCAGCGGUGUCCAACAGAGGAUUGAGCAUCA | 0.217 ratio
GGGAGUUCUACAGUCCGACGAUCUUGUUAAAAUGCUAUUUCCUUUAUUACCUUGGAAACUGACUCAGCCUCAUGUUGCUCCUAAUCCGUGUUUAAGGCUCCCAUGAGUUGCAGAUAAAAUGAUUUAUUUUAACAAGUAGAAGGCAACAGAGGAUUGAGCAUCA | 0.861 ratio
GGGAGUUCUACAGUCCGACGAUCAAUCAGUAGAAUUACAUAAUACUAAAGUUGCAGUUGAAAGAAUAUCCAAGUAUGUGUUGGCCGUUACUAAAAGAAUUAUAGCUGUUAUUGCCUUGUAUUUAUAGCCCUUGUUUCAGGUUUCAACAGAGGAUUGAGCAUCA | 2.36 ratio
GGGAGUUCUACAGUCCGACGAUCUUAGCUAGUGGAGCCACUUUCUGUAUUGUUACAUGGACAUAUGUAGCAACACAAGUCGGAACCGAAUGGAACCUGUCCCCUGUUGGCAGAGUUACCCCAAAGGAAUGGAGGAAUCAGUAACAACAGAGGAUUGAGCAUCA | 0.194 ratio
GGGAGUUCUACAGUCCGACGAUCCUGUCAUGACUGGGUAGUGUGGACUAUCCUGAGCCGUAACUGCUCUGAAUGUUCACUCGAUCCGCCAUGUAUAUUUUAAAUGCUAAUAUUUAAUGAAUGUAAGUUUCAACAUUGUUGCUACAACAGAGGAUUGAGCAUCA | 0.243 ratio

Block 3 — method: protein-binding microarray; molecule type: double-stranded DNA, one strand shown; medium: in vitro; tested at: not given; reading: higher = stronger binding
Target: Runt-related transcription factor 1 (RUNX1, Homo sapiens, UniProt Q01196, residues 1-453, full length assumed)
Sequence of UniProt Q01196 (whole entry, looked up): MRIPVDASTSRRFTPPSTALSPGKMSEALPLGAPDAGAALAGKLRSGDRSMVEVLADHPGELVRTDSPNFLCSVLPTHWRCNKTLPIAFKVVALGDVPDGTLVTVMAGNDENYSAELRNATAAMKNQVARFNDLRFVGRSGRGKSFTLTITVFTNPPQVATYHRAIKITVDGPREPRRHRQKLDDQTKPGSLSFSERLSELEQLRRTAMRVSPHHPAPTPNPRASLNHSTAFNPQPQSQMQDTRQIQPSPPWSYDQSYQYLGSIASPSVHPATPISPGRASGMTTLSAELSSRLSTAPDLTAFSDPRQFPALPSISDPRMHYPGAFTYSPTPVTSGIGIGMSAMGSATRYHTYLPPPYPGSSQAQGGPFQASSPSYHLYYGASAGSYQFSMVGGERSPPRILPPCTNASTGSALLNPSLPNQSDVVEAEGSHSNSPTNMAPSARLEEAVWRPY
Setting: k-mer, scored over probes, only values ≥0.25
Strand | E-score
ACCACAG | 0.398
CCCACAC | 0.337
CCGCAGC | 0.285
GTTATTA | 0.252
AACCGCG | 0.46
GTGGTTA | 0.458
CCGCAGA | 0.4
AAAACCG | 0.311
GTGGTGA | 0.301
CCGCAAG | 0.334
CCGCAGG | 0.286
ACCCACA | 0.34
ACCGCAT | 0.468
CCGCAAA | 0.462
CACCGCA | 0.368
GTAACCA | 0.302
CGGTTAG | 0.3

Block 4 — method: protein-binding microarray; molecule type: double-stranded DNA, one strand shown; medium: in vitro; tested at: 940 nM top; setting: 60-bp whole probe; with: salmon DNA 0.4 mg/ml; relative to: random background probes; reading: higher = stronger binding; shared flanks, not repeated: GCCTAGCAC … GTCTTGATTCGCTTGACGCTGCTG
Target: Interferon regulatory factor 5, full length, phosphomimetic (IRF5, Homo sapiens, UniProt Q13568-2, residues 1-514, S451D/S453D/S456D/S462D)
Strand | fitted relative affinity [z-score]
TTAGGTTTCGGGACTGGGTGAGTGCTA | 7.89
GACGAACTGAGTCTCGAGATGTGCTAG | 0.851
TCATGTTTCCATTTTCTACTGTGCTAG | 1.26
ATAGATCTCAGTTTCGATTAGTGCTAG | 7.9
TTAGGTCTCGGTCTCCGTTAGTGCTAG | 4.45
TTATATCTCAGTCTCGATTAGTGCTAG | 3.66
TGTGCTTTCCTCGTGATGCTGTGCTAG | -0.229
GACGAACTGAATTTCGAGACGTGCTAG | -0.154
TCAATTTTCTAAATTCCACTGTGCTAG | 0.26
GACGATTGCAGTTTCGAGACGTGCTAG | 3.27
TGCTTTGGACCCAGGGCTAAGTGCTAG | -0.685
TCAGATTTCGGGACTGGATTAGTGCTA | 0.333
GACGGCTTCGGGTATCGGGACGTGCTA | 0.574
TCATTCCTCTTTCTTTGACTGTGCTAG | 2.09
AGAATTTTCATTAACTGTTAGTGCTAG | 0.433
GACGGTTTCCTCATCCTGACGTGCTAG | 0.88
TTAGATTTCCGGTATCGATTAGTGCTA | 4.42
GACGGTCTCCTTCTCCTGAGGTGCTAG | 0.338
TTTGCTTTCCTTCATGCACTGTGCTAG | 0.863
TTAGGTATCCTACTGCTATAGTGCTAG | 0.124
GCCGGTTTCCTTTTCCTGACGTGCTAG | 2.54
TTAAGACTGGGTCTCGGTTAGTGCTAG | 1.2
TTTCTTTTGCTTGTTCTTAGCGTGCTA | 2.72
TCACCTCTAACTTTCCAACTGTGCTAG | 0.912
GACGGTATTGACTATCGGGACGTGCTA | 0.133

Excerpt of the above (block 3):
Strand | E-score
CCGCAGC | 0.285
GTTATTA | 0.252
AACCGCG | 0.46
GTGGTTA | 0.458
CCGCAGA | 0.4
